Experimental data gathered from unrelated publications.
± gives the spread as reported.

Protein sequences, listed by entry. Tags and fused reporters are not part of them.
UniProt Q16539, whole entry: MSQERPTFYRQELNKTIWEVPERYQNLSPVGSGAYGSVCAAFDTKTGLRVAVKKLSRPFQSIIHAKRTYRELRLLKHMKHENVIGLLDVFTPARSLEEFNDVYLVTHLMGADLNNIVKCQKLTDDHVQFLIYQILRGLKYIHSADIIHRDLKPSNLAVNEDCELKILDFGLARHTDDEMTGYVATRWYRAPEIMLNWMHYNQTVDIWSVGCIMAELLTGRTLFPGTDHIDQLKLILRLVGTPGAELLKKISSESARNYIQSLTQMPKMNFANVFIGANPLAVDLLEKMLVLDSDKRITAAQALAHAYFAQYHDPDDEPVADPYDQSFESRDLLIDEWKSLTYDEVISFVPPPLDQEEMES

SMILES | target or system | test | conditions | how to read | endpoint | value
CN(C)CCNC(=O)c1cc([N+](=O)[O-])cc2ccc(-c3ccccc3)nc12 | K562 | cytotoxicity, XTT | 96 h |  | IC50 | 1800 ± 1600 nM
CC/C=C\C/C=C\CCC/C=C/C=C/C=C\CCCC(=O)O | HL-60 | flow cytometry | 12.5 µM, 24 h |  | S phase cells | 44.6%
CCOC(=O)c1c(-c2ccc(Cl)cc2Cl)n(-c2nc(-c3ccc(Cl)cc3)c3c(NC(=O)c4ccccc4)nnc-3[nH]2)[nH]c1=O | 786-0 renal cancer | NCI60 SRB | 10 µM |  | cell growth | 7%
Cc1ccc(S(=O)(=O)Nc2ccccc2C(=O)Nc2nc(-c3ccccc3)cs2)cc1 | GALT-deficient patient fibroblasts | refers to: 13C galactose 1-phosphate | 25 µM, 24 h pre-incubation, with: 0.05% galactose for 4 h | reference: DMSO | decrease in galactose 1-phosphate | > 30%
CN(C)CCNC(=O)c1cccc2ccc(-c3ccc(-c4ccccc4)cc3)nc12 | MDA-MB-468 | protection from CB1954/NRH toxicity | 3 h, with: 100 µM CB1954 plus 100 µM NRH |  | IC50 | 380 ± 270 nM
CON(C1CC[C@@]2(C)[C@H](CC[C@@H]3[C@@H]2CC[C@]2(C)[C@@H](c4ccc(=O)oc4)CC[C@]32O)C1)C1OCC(O)C(O)C1O (stereo partly shown) | HeLa | cell proliferation, MTT |  |  | IC50 | 26.8 ± 2.3 nM
Cc1c(Cn2c(C)nc3c(C(=O)O)cc(N4CCOCC4)cc32)cccc1C(F)(F)F | C4-2B enzalutamide-resistant | no effect, Western blot | 5 µM |  | CDK6 protein level | no effect
CCN(CC)CCCC(C)Nc1cc(-c2ccccc2)nc2cc(OC)ccc12 (stereo not shown) | K562 | cytotoxicity, XTT | 96 h |  | IC50 | 440 ± 570 nM
N#Cc1c(-c2ccc(Cl)cc2Cl)n(-c2nc(-c3ccc(Cl)cc3)c3c(NC(=O)c4ccccc4)nnc-3[nH]2)[nH]c1=O | HCT-116 | SRB |  |  | GI50 | 4300 nM
C=C(C)C(=O)Nc1ccc(-c2c(-c3ccc(Oc4nccc(C)n4)c(F)c3)c3c(N)ncnc3n2C)cc1 | EN | cell growth, CellTiter-Glo | 120 h |  | GR Hill coefficient | 0.62
CC(C)C[C@H](NC(=O)[C@H](C)NC(=O)[C@H](CCCNC(=N)N)NC(=O)[C@H](CCCNC(=N)N)NC(=O)[C@H](CCCNC(=N)N)NC(=O)[C@H](C)NC(=O)[C@H](CC(C)C)NC(=O)[C@H](CCCNC(=N)N)NC(=O)[C@H](CO)NC(=O)[C@H](CCCCN)NC(=O)[C@H](CO)NC(=O)Cn1cc(COC(=O)[C@]2(C)C=C(C(=O)OC(C)(C)C)C(=O)CC2)nn1)C(=O)O | MAPK14 (Homo sapiens, UniProt Q16539) | enzyme activity, inhibitor, D-SENSOR | 0.09145 µM |  | normalized kinase activity | 0.759
CC(C)CC(NC(=O)C(Cc1ccccc1)NC(=O)c1cnc(C(=O)NC(Cc2ccccc2)C(=O)NC(CC(C)C)B(O)O)cn1)B(O)O (stereo not shown) | MM1.S | cell invasion, Matrigel invasion | IC50 | reference: untreated | inhibition | 65.2%
Cc1ccc(C#Cc2cccc(-c3nn(-c4nc(C(=O)O)cs4)c(CC4CC4)c3Cc3ccc(S(N)(=O)=O)c(F)c3)c2)s1 | HEK293T | lactate production | 1 h |  | IC50 | 500 nM

Some of these lines once more:
SMILES | target or system | test | conditions | how to read | endpoint | value
CC/C=C\C/C=C\CCC/C=C/C=C/C=C\CCCC(=O)O | HL-60 | flow cytometry | 12.5 µM, 24 h |  | S phase cells | 44.6%
